Results gathered from unrelated publications.
Every numbered part comes from another study and shows a few of its results, in no order.

Block 1 — method: RNAcompete; molecule type: RNA; sample: in vitro; tested at: 20 nM; notes: 7-mer, probes averaged, single round; baseline: mean of 7-mers; direction: higher = stronger binding; quantity: 7-mer Z-score
Target: PABPC1L2, full length, GST fusion (mouse, UniProt A0ABA7IW68)
Residues (chain): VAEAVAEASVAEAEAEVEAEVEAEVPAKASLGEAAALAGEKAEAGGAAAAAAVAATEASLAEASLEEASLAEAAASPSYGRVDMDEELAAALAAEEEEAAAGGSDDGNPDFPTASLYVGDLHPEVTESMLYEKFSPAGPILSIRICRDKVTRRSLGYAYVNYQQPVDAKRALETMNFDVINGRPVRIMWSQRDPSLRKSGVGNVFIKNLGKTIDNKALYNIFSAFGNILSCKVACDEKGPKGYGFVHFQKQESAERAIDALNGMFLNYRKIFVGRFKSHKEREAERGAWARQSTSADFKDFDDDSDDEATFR
CCUCCCC: -0.44
AACCUCU: -0.19
CACUUGU: -0.324
UCACUUU: -0.307
CUCGCUA: -0.376
AAGUUUU: -0.204
AGCAGCC: 0.0986
CCCCACU: -0.311
GCAACUU: -0.148
UUUCGAA: -0.224
GUAGGUU: -0.0518
CGGGCUC: 0.106
UAGAGCA: 0.137
AAACUUU: 0.744
ACUGGAU: -0.05
GUCCAAC: -0.0953
GGUAUAU: -0.0246
CUUAUGA: -0.168

Block 2 — method: RNA Bind-n-Seq; molecule type: RNA; sample: in vitro; tested at: 100 nM; baseline: input RNA pool; direction: higher = stronger binding; quantity: bound/input enrichment
Target: RING finger protein unkempt homolog, zinc fingers 1-6, SBP tag (UNK, Homo sapiens, UniProt Q9C0B0, residues 30-357)
UniProt Q9C0B0, sequence (30-357, looked up): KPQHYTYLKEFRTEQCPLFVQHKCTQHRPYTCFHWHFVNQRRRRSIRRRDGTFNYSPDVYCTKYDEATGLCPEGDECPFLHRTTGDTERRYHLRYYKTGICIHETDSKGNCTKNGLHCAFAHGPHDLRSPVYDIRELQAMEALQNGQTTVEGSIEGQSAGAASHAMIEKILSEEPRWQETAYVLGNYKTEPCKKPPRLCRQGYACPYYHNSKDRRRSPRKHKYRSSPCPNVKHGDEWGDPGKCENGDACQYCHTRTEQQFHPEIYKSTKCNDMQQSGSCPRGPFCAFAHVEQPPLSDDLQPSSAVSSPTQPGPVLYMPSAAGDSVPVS
Notes: RNA with constant flanks, vertebrate orthologous sites, ends assumed
Shared flanks, not repeated: GGGAGUUCUACAGUCCGACGAUC … CAACAGAGGAUUGAGCAUCA
GUUAGGUCAUGACCCUUAUAGGCUAGGUCAUGAUGCCUACAGGUUAGGGCAGGACCCUUAUAGAUUAGGCCAUGAUCCCUACAGACUAACUCCUGAUCCCUAUAGGAUGUCACCUAGACC: 0.568 ratio
GGGCGGCCCGUGGGGGAAUUCCCUGCCUUGGCCUUACCUCCCCUUCCUGCCACUUGCCCCUAGUUAUUUUUUUUUUUUUUUUUACCACCAUGUGAUUAAGGUCGGCGCUGCCUCCCCCGA: 10.7 ratio
UCCUUUCAUACUGUCCCCAGUCAGGGCCAAGGACUUCAGUUACUUGCUGAGGACCUGCAUUUAAAAUCUUUUUUUAAAAAAAUUAUUAUAUAGGAAAAGGUGUGACUAAAACACCAUCUC: 0.572 ratio
CAUUUUCUUAUUUUAGGUAUCAUUGCCCAAUGCCUAAGAUCUUUUAUGUUCAGCUAACGGUAGGAAAUAACGAGUUUUUUGGUGAAGGAAAGACUCGACAAGCUGCAAGGCACAAUGCUG: 0.613 ratio
ACACUUAUAUUGUGGCAUAUAGUCAACAUGGAAGUAGACCAGCUCUGCUGAUUGGAAAUUUAGAUUUUUUUAAUUAUGUACUGGGGACAGGUUUUUGUCGCUUUACAUUGCUUCCUAGUU: 3.36 ratio
CCUCCAGAAAAUGUUUAGCUUUCAAAUUGUGGCUGUUUUAGAUACUGGUUUUACUUUCUUUAGAAUUUUUUCCUGUUUCCCAUCUUCUCCUCCCCUGUUCCCAAGGUUUGACUCAUGGAA: 2.45 ratio
UCAGUCCCCUGGGCCGGGACAGAUUUUUUUUAACGUCUUGAAACUUAAACUCUGUGCUUGUAGGAUACUGUAACCUUUUUGUCUUUUUUUUUUUUUUUUUUUUUAAACCUCCACCUCCAG: 2.82 ratio
AAGAACAGGAGCAGCAUAGACUGAGCUUUGGGGAAAUAAGCUUUGCUUUUUAUAUUUAAAUAGGAUACUUUUAUAUGAUGGGUGCUUUGAGUGUGAAUGCAGCAGGCUCUCCAUUUCAGA: 1.8 ratio

Block 3 — method: protein binding microarray; molecule type: double-stranded DNA, one strand shown; sample: in vitro; tested at: not given; baseline: not given; direction: higher = stronger binding; quantity: E-score
Target: Histone acetyltransferase KAT6A, both winged helices, GST fusion (KAT6A, Homo sapiens, UniProt Q92794, residues 1-181)
Notes: 8-mer, flanks averaged, mean of 2 arrays, mostly near background
Target sequence (chain): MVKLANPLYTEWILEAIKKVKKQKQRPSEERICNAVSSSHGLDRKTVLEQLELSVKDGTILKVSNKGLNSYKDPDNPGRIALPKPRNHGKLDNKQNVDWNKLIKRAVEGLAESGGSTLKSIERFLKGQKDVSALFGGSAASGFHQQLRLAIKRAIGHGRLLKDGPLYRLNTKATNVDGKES
AAAATTCG: -0.0349
CGCGCGTA: 0.404
AAATTTCA: -0.265
GTAATTGA: 0.0454
AACGTCTT: -0.115
AGCGCAAA: 0.225
CTCTTGGA: -0.0945
ATACTTTG: -0.154
CTTAAAGA: -0.083
AATACCTA: -0.137
GTTAGTGA: -0.206
CTACAGTA: -0.101
GTTTACCA: -0.00585
ACACAGAT: -0.197
GGATTTCA: -0.0881
TCAGACCA: -0.25
CCGAGAGA: -0.102
GTGCCGTA: 0.292
ACAATCCA: -0.13
AACCGAAC: -0.121
GCAGGCGA: -0.109
ATCAATCA: 0.0958
GAGAGCGA: 0.0274
GGTGAGAA: -0.101
GTAGTCCA: -0.15

Block 4 — method: competition protein-binding microarray; molecule type: double-stranded DNA, one strand shown; sample: in vitro; tested at: 2 µM; together with: Pho4 competitor, 0.05 µM; direction: higher = stronger binding; quantity: fluorescence intensity; shared flanks, not repeated: … GTCTTGATTCGCTTGACGCTGCTG
Target: Centromere-binding protein 1, full length, His-tagged (CBF1, Saccharomyces cerevisiae, UniProt P17106, residues 1-351)
UniProt P17106, sequence (whole entry, looked up): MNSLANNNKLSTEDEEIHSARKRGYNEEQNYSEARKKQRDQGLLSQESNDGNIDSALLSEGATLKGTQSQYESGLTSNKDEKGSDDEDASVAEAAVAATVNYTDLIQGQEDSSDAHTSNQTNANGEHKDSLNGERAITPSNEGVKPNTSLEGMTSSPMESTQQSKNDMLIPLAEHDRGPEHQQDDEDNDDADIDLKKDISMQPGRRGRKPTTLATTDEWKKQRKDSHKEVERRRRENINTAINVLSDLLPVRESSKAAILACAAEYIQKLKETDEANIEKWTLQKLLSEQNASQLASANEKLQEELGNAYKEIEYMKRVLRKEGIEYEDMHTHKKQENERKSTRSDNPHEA
Notes: whole 60-bp probe, lowest competitor level
CATCATTTGCCACTCCACATGACAATGTAAAAGCCA: 254 a.u.
CTAACGAAGGTTTGTGAGGTGGGTGACAAGCCAAGT: 68 a.u.
CATACCCAACCTTGGCTGGTGGGTGAAGATATTTGT: 45.9 a.u.
TATTGGTTTTGGAAACACGTTTCGAATCTTCAGTAT: 141 a.u.
TGCGCAACAACTTGAGGTGTGGGTGTATGTCTAGAA: 64.3 a.u.
CTTTCCCGATCTTGGTCCGTGGGTGTAGCACATTTG: 62.3 a.u.
GCCTGTCCGTTGCTGCACATGCTTGCGTAGGGCCTT: 87.7 a.u.
CAAAGAAACCAAAGGGTCGTGCTTTCAAGAGATTAT: 91.6 a.u.
CTTCTGTAAATTTGGCCAGTGGGTGGACGCGCCCCG: 59.8 a.u.
CTCTAAATCCCGAGTCACGCATACTTTGGCAGAAAG: 220 a.u.
TTGTGCTCGCTGGGCGGCGTGCCGATGCTTTCATCG: 54.2 a.u.
TAAATGGTTCAAATTCACGTGGGTAATAATATGATT: 1280 a.u.
TGCGCAACAACTTGCAAGGTGGGTGTATGTCTAGAA: 71.2 a.u.
GCGGTGTCAAACGGTCTGGTGTGCCATCTAGAAGTT: 59.4 a.u.
CTTCTCTTTCCCTGGCACGTGCAATTTTACCTCTGA: 3320 a.u.
AAAGCGGTAATTTGATCCGTGGGTGCAGATATCTAT: 84.3 a.u.
CGTCTGCTAATGGCGGACGTGGTCGATGATGAAGAG: 55 a.u.
AAATTACTAAGTTTTCACGTGATCTACCCCGTATGA: 5680 a.u.
GGCCACCTTGATCTGCATGTTTCTTCTAGGTGAGCT: 62 a.u.

Repeated from above (block 4):
CGTCTGCTAATGGCGGACGTGGTCGATGATGAAGAG: 55 a.u.
TGCGCAACAACTTGCAAGGTGGGTGTATGTCTAGAA: 71.2 a.u.
TTGTGCTCGCTGGGCGGCGTGCCGATGCTTTCATCG: 54.2 a.u.
CTAACGAAGGTTTGTGAGGTGGGTGACAAGCCAAGT: 68 a.u.
TATTGGTTTTGGAAACACGTTTCGAATCTTCAGTAT: 141 a.u.
CATCATTTGCCACTCCACATGACAATGTAAAAGCCA: 254 a.u.
TGCGCAACAACTTGAGGTGTGGGTGTATGTCTAGAA: 64.3 a.u.
AAAGCGGTAATTTGATCCGTGGGTGCAGATATCTAT: 84.3 a.u.
